Assay results gathered from unrelated publications.
Compare with care: the assays were run in different laboratories. “And” joins repeats or separate records; there may be more than shown.
Target: Inhibitor of nuclear factor kappa-B kinase subunit epsilon (IKBKE, Homo sapiens, UniProt Q14164)
Sequence (Q14164 1-716, as in one of the studies): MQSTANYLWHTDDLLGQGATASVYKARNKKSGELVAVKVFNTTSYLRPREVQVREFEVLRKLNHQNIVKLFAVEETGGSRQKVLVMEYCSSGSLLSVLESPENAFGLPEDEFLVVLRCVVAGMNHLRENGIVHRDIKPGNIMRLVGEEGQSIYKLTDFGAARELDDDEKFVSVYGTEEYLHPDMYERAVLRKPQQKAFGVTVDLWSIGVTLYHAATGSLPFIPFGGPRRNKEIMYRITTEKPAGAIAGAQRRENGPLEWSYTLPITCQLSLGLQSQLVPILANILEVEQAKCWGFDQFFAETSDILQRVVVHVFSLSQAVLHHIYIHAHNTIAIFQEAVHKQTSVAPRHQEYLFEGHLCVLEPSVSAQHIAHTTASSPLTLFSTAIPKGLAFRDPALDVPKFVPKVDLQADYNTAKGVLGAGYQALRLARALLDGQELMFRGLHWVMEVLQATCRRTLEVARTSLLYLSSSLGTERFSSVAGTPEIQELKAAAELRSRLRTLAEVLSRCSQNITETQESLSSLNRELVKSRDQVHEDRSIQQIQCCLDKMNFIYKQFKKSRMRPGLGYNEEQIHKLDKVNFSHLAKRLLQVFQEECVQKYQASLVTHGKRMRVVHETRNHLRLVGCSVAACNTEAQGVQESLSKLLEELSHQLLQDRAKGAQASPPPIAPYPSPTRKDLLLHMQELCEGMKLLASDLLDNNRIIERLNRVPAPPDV

CC(C)=CC1OC(C)(C)C2C=C3C(=O)C(Cl)=CC(O)C3C3C(O)C4OC4C(=O)C132 (stereo not shown)  remaining binding (cell-free assay, competition with immobilised ligand; 10 µM): 98%
Cc1cccc(O[C@H]2CCC[C@@H](C(C)CNCc3ccncc3)C2)c1 (relative stereo)  inhibition (enzyme activity, inhibitor; 1 µM): 18%
COc1cc(Nc2nc(C)cc(-c3cnn4nc(OC)ccc34)n2)cc(C(F)(F)F)c1  remaining binding (KINOMEscan; 1 µM, IKK-epsilon; reference: DMSO): 83%
CS(=O)(=O)Nc1cccc(-c2csc3cnc(Nc4ccc(N5CCN(CCCCCOc6cccc7c6C(=O)N(C6CCC(=O)NC6=O)C7=O)CC5)cc4)nc23)c1 (stereo not shown)  inhibition (probe labelling, inhibitor, KiNativ chemoproteomics; MOLT-4; 1 µM): 83.5%
O=C(Cc1ccc(OCc2ccccc2)cc1)NC1(C(=O)O)CCN(C(=O)c2ccc(-c3cccc(Cl)c3)cc2)CC1  activity vs control (enzyme activity, inhibitor; 10 µM): 101%
CNC1C[S+]2CC[S+]3CC[S+](C1)[Ru-4]321([N]=C=S)[n]2c3ccc(OC)cc3c3c4c(c5cc(F)c[n+]1c5c32)C(=O)NC4=O (stereo not shown)  remaining binding (KinomeScan; 0.1 µM; reference: untreated): 100%
COCC12C(=O)NC3C4(C(OC)CC1O)C1CC5(O)C(OC)C(O)C(OC(C)=O)(C1C5OC(=O)c1ccccc1)C3(O)C(OC)C24 (stereo not shown)  remaining activity (kinase activity, inhibitor, ProQinase kinase profiling; 25 µM; reference: control): 85% and 98%
Cc1cccc(-c2ccc3nc(NC(=O)C4CCCO4)nn3c2)c1 (stereo not shown)  remaining activity (enzyme activity, Dundee kinase panel; 10 µM): 100%
Cc1cnc2nc1Nc1cccc(c1)COC/C=C/COCc1cc(ccc1OCCN1CCOCC1)N2  remaining binding (binding, competition with immobilised ligand; 0.1 µM): 95%
CNC(=O)C[C@H](Cc1ccc(C#N)cc1)NC(=O)c1cc(-c2ccc(CN[C@H](C)c3ccc(C)cc3)o2)ccc1Cl  activity vs control (enzyme activity, inhibitor; 1 µM): 98%
Nc1ncc2c(n1)-c1c([nH]c3ccc(C4=CCOCC4)cc13)CCC2  remaining binding (binding, competition with immobilised ligand; 1 µM): 100%
NC(=O)C[C@H]1CCc2sc3ncnc(O[C@H]4CC[C@H](N5CCOCC5)CC4)c3c21  inhibition (enzyme activity, inhibitor; 10 µM): 0%
C=CC(=O)Nc1cccc(-c2cnc3[nH]cc(C(=O)NC(C)(C)C)c3n2)c1  inhibition (enzyme activity, inhibitor; 0.1 µM): 12%
Cc1cccc(-c2ccc3nc(NC(=O)C4CCCCC4)nn3c2)c1  remaining activity (enzyme activity, Dundee kinase panel; 10 µM): 86%
CCN1CCN(Cc2ccc(C(=O)Nc3ccc(C)c(NCc4cnc5[nH]ccc5c4OC)c3)cc2C(F)(F)F)CC1  remaining binding (binding, competition with immobilised ligand; 1 µM): 100%
N[C@H]1CC[C@H](Nc2nccc(-c3cccnc3Oc3ccc(NC(=O)NC4CC4)c4ccccc34)n2)CC1  log2 LFQ intensity (kinobead competition pulldown; HEK293/HCT116 lysate mixture; 10 µM, 1 h, 4 °C; lower = stronger competition): 19.9 and 20.7 and 20.3 and 20.4

Excerpt of the above:
CNC(=O)C[C@H](Cc1ccc(C#N)cc1)NC(=O)c1cc(-c2ccc(CN[C@H](C)c3ccc(C)cc3)o2)ccc1Cl  activity vs control (enzyme activity, inhibitor; 1 µM): 98%
Cc1cnc2nc1Nc1cccc(c1)COC/C=C/COCc1cc(ccc1OCCN1CCOCC1)N2  remaining binding (binding, competition with immobilised ligand; 0.1 µM): 95%
